Measured values pooled from the literature.
Protocols differ between the studies behind these lines. Numbers after ± are the reported error.
Sequence of UniProt Q96GD4 (whole entry, looked up): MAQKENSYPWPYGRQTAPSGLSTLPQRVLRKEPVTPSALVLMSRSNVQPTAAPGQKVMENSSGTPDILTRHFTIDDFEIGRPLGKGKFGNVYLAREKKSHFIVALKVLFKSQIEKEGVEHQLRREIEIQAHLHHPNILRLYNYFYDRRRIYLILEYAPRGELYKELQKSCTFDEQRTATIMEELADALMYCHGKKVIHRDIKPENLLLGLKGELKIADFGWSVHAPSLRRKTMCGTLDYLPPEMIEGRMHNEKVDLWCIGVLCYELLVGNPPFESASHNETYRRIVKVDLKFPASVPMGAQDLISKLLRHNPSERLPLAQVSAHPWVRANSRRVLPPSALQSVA

SMILES | tested on | assay | test system | conditions | how to read | endpoint | value
CN(C)[C@H]1C[C@@]23CC[C@@]4(O2)C(=CC[C@]2(C)[C@@H](c5ccc6ccncc6c5)CC[C@H]24)C=C3[C@@H](O)[C@@H]1O | Aurora kinase B (AURKB, Homo sapiens, UniProt Q96GD4) | ATP probe labelling, inhibitor, KiNativ profiling |  | 1 µM |  | inhibition | 3%
COc1nc(CC=C(C)CC=CC(C)=CC(C)C(OC2OC(CO)C(O)C(O)C2O)C(C)=CCO)c(C)c(O)c1OC (stereo not drawn) |  | glucuronidation | human liver microsomes |  |  | Vmax | 0.061 ± 0.001 nmol/min/mg
CCCCCCCCCCCC1CC(=O)NC(CC(N)=O)C(=O)NC(Cc2ccc(O)cc2)C(=O)NC(CC(N)=O)C(=O)NC(CCC(N)=O)C(=O)N2CCCC2C(=O)NC(CC(N)=O)C(=O)NC(CO)C(=O)N1 (stereo not drawn) |  | calcein leakage | DOPC/DOPG/CHOL liposomes | concentration not given, added: 40 mM CaCl2 |  | maximum fusion | 48 ± 10%
Cc1cc(C(=O)Nc2nc3cccc(C)c3n2[C@H]2CCCCN(C(=O)/C=C/CN(C)C)C2)ccn1 | Trypanosoma brucei |  | STIB795, mouse acute HAT model | oral, 25 mg/kg once daily for 4 days, day 21 | baseline: mice | survival | 33.3%
CC(C)[C@@H]1NC(=O)[C@@H]2CCCN2C(=O)[C@@H](C(C)C)NC(=O)[C@H]2CCCN2C(=O)[C@H](C(C)C)NC(=O)[C@@H]2CCCN2C(=O)[C@@H](C(C)C)NC(=O)[C@H]2CCCN2C(=O)[C@H](C(C)C)NC(=O)[C@@H]2CCCN2C(=O)[C@@H](C(C)C)NC(=O)[C@H]2CCCN2C1=O |  |  | sheep lipid bilayer | 10 µM, pH 7.4, 23 °C, added: 0.1 M K+ vs Cs chloride |  | bi-ionic potential | -22 mV
CC(C)(C)C(=O)OCOP(=O)(OCOC(=O)C(C)(C)C)C1CCCN(O)C1=O (stereo not drawn) | KM12 |  |  |  |  | log TGI | -4.88 log M
CCN(Cc1ccccc1)C(=O)CCc1nc(CN2CCN(C(=O)Cc3ccc(OC)c(OC)c3)CC2)no1 |  | current clamp | DRG neurons, naive rat | 3 µM |  | resting membrane potential | -59.5 ± 2.48 mV
CC(=O)N1c2ccc(-c3ccc(CNC(=O)c4cn5cc(-c6cnc(N)nc6)nc(N6CCOCC6)c5n4)cc3)cc2CC[C@@H]1C |  |  | mice with transplanted Eµ-Myc lymphoma | 35 mg/kg, 15 d dosing |  | median overall survival | 45 days
O=C1NC2(CC2)COc2ncc(F)cc2[C@H]2COCCN2c2ccn3ncc1c3n2 |  |  | Sprague-Dawley rat, female, serum | oral, 5 mg/kg/day, end of treatment, 4-week subacute toxicity |  | serum triglycerides | 0.59 ± 0.21 mmol/L
COc1ccccc1-c1n[nH]c2nc(N[C@H]3CC[C@H](NS(=O)(=O)CC(C)C)CC3)ncc12 |  | bead binding, competition bead pull-down, measured: LINJ.35.1240 | Leishmania donovani extract | 10 µM | baseline: vehicle | relative abundance | 1.01
O=C(O)c1ccc(-c2nc(-c3ccccc3Cl)c3sccn23)cc1 |  | ELISA, measured: thrombopoietin | mouse, post-5-FU, plasma | dose not given, day 10 post-5-FU | baseline: PBS/PEG control | plasma TPO level | 1.4 fold
COc1ccccc1-c1n[nH]c2nc(NC3CCN(C(=O)Cc4ccc(F)cc4F)CC3)ncc12 |  | bead binding, competition bead pull-down, measured: LINJ.36.2790 | Leishmania donovani extract | 10 µM | baseline: vehicle | relative abundance | 0.89
C(=N\Cc1cc(C/N=C/c2ccc[nH]2)cc(-c2cc(C/N=C/c3ccc[nH]3)cc(C/N=C/c3ccc[nH]3)c2)c1)/c1ccc[nH]1 |  |  | hACE2 mice, bronchoalveolar lavage fluid | dose not given | baseline: control | IL-18 level | decreased
CC(C)C[C@@H]1NC(=O)[C@@H](Cc2c[nH]c3ccccc23)NC(=O)[C@H](CCCNC(=N)N)NC(=O)[C@@H](CCC(=O)O)NC(=O)[C@H](CCC(N)=O)NC(=O)[C@@H](CCC(=O)O)NC(=O)[C@H](CCCNC(=N)N)NC(=O)[C@@H](Cc2c[nH]c3ccccc23)NC1=O |  | Luminex, measured: Eotaxin | LDLr-/- mice, Western diet, liver | dose not given, 4 weeks |  | cytokine level | 1200 ± 390 pg/g tissue
CC[C@H](C)[C@H](NC(=O)[C@H](CO)NC(=O)[C@H](Cc1ccc(O)cc1)NC(=O)[C@H](Cc1ccc(O)cc1)NC(=O)[C@H](CC(N)=O)NC(=O)CNC(=O)[C@H](CO)NC(=O)[C@H](Cc1ccc(O)cc1)NC(=O)[C@H](CO)NC(=O)[C@H](CO)NC(=O)[C@H](CC(N)=O)NC(=O)COCCOCCNC(=O)CN1CCN(CC(=O)O)CCN(CC(=O)O)CCN(CC(=O)O)CC1)C(=O)N[C@@H](CC(C)C)C(N)=O [copper-64 labelled] |  | dynamic PET | mouse, tamoxifen-induced PDAC, tumor | intravenous, 0.1 µg/mouse, 9.5 min |  | tumour uptake | 11.2 %ID/mL

Excerpt of the above:
SMILES | tested on | assay | test system | conditions | how to read | endpoint | value
COc1ccccc1-c1n[nH]c2nc(N[C@H]3CC[C@H](NS(=O)(=O)CC(C)C)CC3)ncc12 |  | bead binding, competition bead pull-down, measured: LINJ.35.1240 | Leishmania donovani extract | 10 µM | baseline: vehicle | relative abundance | 1.01
